Measured values from different studies.
Lines come from different studies, so protocols differ. “And” joins repeats or separate records; there may be more than shown.
Read-out: cell growth or viability

| SMILES | cell line | method | concentration | time | endpoint | result |
| --- | --- | --- | --- | --- | --- | --- |
| CS(=O)(=O)c1cccc(-c2nnc(NC(=O)c3ccc(-c4ccccc4)cc3)o2)c1 | K562 |  |  |  | IC50 | 35.2 µM |
| CN(CC(=O)Nc1ccc(N(C)c2ccc(Cl)cc2)cc1)c1ccccc1N1CCCC1=O | HepG2 | ATP luminescence |  | 48 h | CC50 | > 40 µM |
| Nc1ccn([C@@H]2O[C@H](CO)[C@@H](O)C2(F)F)c(=O)n1 | HEK293 | MTT | 5 µg/mL | 48 h | viability | 26.4% |
| O=[N+]([O-])c1cnc2ccc(F)cc2c1O | K562 |  |  |  | IC50 | 113 µM |
| COc1ccc(S(=O)(=O)ON=C2C=C(C)C(=O)C(C)=C2)cc1 | MDA-MB-435S |  |  |  | CC50 | 1.91 µM |
| COc1cccc(NC(=O)Nc2ccc(Oc3nc4ccccc4n4cnnc34)cc2)c1 | WI-38 | MTT | 25 µM | 24 h | viability | 78.4% |
| CSc1nc(O)n2nccc2n1 | K562 |  |  |  | IC50 | > 703 µM |
| COc1cc(N2CCC(N3CCN(C)CC3)CC2)ccc1Nc1ncc(Cl)c(Nc2ccccc2P(C)(C)=O)n1 | Ba/F3 EML4-ALK | CCK-8 | 1 µM | 6 h | viability | 47% and 51% |
| CC1(C(=O)O)CCC(C(=O)Nc2ccc(Nc3ccccc3)cc2)C1(C)C (stereo not drawn) | K562 |  |  |  | IC50 | 222 µM |
| Cc1ccc(N(C)c2ccc(NC(=O)CN(C)c3ccccc3N3CCCC3=O)cc2)cc1F | HepG2 | ATP luminescence |  | 48 h | CC50 | > 40 µM |
| COC1/C=C/OC2(C)Oc3c(C)c(O)c4c(O)c(c5c(nc6cc(C)ccn65)c4c3C2=O)NC(=O)/C(C)=C\C=C\C(C)C(O)C(C)C(O)C(C)C(OC(C)=O)C1C (stereo not drawn) | K562 |  |  |  | IC50 | 70.4 µM |
| Cc1ccc(N(C)c2ccc(NC(=O)CN(C)c3ccccc3N3CCCC3=O)nc2)cc1 | HepG2 | ATP luminescence |  | 48 h | CC50 | > 40 µM |
| CC(=O)c1nn(-c2ccc(C)cc2)/c(=N/N=C(\C)c2ccc(NC(=O)c3ccccc3)cc2)s1 | WI-38 | MTS | 0.156 µM | 24 h | viability | 52.8% |
| Cc1ccc(N(C)c2ccc(NC(=O)CN(C)c3ccccc3N3CCCC3=O)cn2)cc1 | HepG2 | ATP luminescence |  | 48 h | CC50 | > 40 µM |
| O=c1oc2cccnc2c(=O)n1Cc1ccc([N+](=O)[O-])o1 | K562 |  |  |  | IC50 | 189 µM |
| Cc1ccc(N(C)c2ccc(NC(=O)CN(C)c3ccccc3N3CCCC3=O)cc2)c(F)c1 | HepG2 | ATP luminescence |  | 48 h | CC50 | > 40 µM |
| C=C(C)[C@H](CC=C(C)C)Cc1c(O)cc(O)c2c1O[C@H](c1ccc(O)cc1O)CC2=O | COLO 205 | MTT |  | 48 h | IC50 | 32.5 µM |
| N#Cc1ccc(Oc2ccc(NC(=O)CNc3ccccc3N3CCCC3=O)cc2)cc1 | HepG2 | ATP luminescence |  | 48 h | CC50 | > 40 µM |
| O[C@@H](CNCCCC(F)(F)F)c1cc(Cl)cc2c1-c1ccc(Cl)cc1C2 | HepG2 | MTT |  | 72 h | CC50 | 6.9 µM |
| O=C(O)c1ccccc1O | K562 |  |  |  | IC50 | > 200 µM |
| CN(CC(=O)Nc1ccc(N(C)c2ccc(Cl)cc2)cc1Cl)c1ccccc1N1CCCC1=O | HepG2 | ATP luminescence |  | 48 h | CC50 | > 40 µM |
